{"data": "Measurements from different studies", "note": "Protocols differ between the studies behind these lines. ± marks the error that the study gave.", "sequence of UniProt P03956 (whole entry, looked up)": "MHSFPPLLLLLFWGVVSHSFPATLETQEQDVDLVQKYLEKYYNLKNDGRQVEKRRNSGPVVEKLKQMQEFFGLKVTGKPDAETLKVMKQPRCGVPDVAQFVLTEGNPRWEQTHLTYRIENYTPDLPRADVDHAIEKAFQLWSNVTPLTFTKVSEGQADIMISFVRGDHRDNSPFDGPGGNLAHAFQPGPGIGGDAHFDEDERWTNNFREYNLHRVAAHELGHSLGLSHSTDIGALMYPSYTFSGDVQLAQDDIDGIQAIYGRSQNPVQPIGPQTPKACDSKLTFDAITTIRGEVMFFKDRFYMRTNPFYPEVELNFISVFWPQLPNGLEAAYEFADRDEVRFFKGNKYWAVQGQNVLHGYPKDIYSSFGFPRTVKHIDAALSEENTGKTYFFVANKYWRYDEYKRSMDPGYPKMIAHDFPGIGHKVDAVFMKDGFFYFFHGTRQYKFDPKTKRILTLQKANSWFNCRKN"}
{"Structure (SMILES)": "CC[C@H](C)[C@H](NC(=O)[C@H](CCCNC(=N)N)NC(=O)[C@H](CCCCN)NC(=O)[C@H](Cc1ccc(O)cc1)NC(=O)[C@H](CC(=O)O)NC(=O)[C@H](C)NC(=O)CNC(=O)CCOCCOCCOCCNC(=O)CN1CCN(CC(=O)O)CCN(CC(=O)O)CCN(CC(=O)O)CC1)C(=O)N[C@H](C(=O)N[C@H](C(=O)N[C@@H](CCCCN)C(=O)N[C@H](C(=O)N[C@@H](CC(N)=O)C(N)=O)C(C)C)C(C)C)[C@@H](C)O [copper-64 labelled]", "assay": "ex vivo gamma counting", "test system": "C57BL/6J male mice, B16-F10 tumour, thymus", "setting": "intravenous, 1.85 MBq, 5 min", "quantity": "tissue uptake", "result": "1.56 ± 0.269 %ID/g"}
{"Structure (SMILES)": "CC[C@H](C)[C@H](NC(=O)[C@@H](Cc1c[nH]c2ccccc12)NC(=O)[C@@H]1CCCN1C(=O)[C@H](CCCCN)NC(=O)[C@H](CCCCN)NC(=O)CCNC(=O)CCNC(=O)CN1CCN(CC(=O)O)CCN(CC(=O)O)CCN(CC(=O)O)CC1)C(=O)N[C@@H](C[Si](C)(C)C)C(=O)O [gallium-68 labelled]", "test system": "nude mouse HT-29 xenograft, pancreas", "setting": "90 min", "quantity": "tissue uptake", "result": "0.19 ± 0.08 %ID/g"}
{"Structure (SMILES)": "COc1ccccc1-c1n[nH]c2nc(NC3CCN(C(=O)Cc4ccc(F)cc4F)CC3)ncc12", "assay": "bead binding, competition bead pull-down, measured: LINJ.35.2780", "test system": "Leishmania donovani axenic amastigote extract", "setting": "10 µM", "scale": "reference: vehicle", "quantity": "relative abundance", "result": 0.98}
{"Structure (SMILES)": "CN1Cc2cc(Cl)ccc2-n2c(nnc2C2CCN(c3cccc([18F])n3)CC2)C1", "test system": "C57BL/6 mouse male, testis", "setting": "intravenous, 3.7 MBq, 5 min", "quantity": "tissue uptake", "result": "0.82 ± 0.05 %ID/g"}
{"Structure (SMILES)": "CC(C)C[C@@H](NC(=O)[C@@H](CCCNC(=N)N)NC(=O)[C@@H](Cc1c[nH]cn1)NC(=O)[C@@H](Cc1c[nH]c2ccccc12)NC(=O)[C@@H](Cc1c[nH]cn1)NC(=O)[C@@H](Cc1ccccc1)NC(=O)[C@H](NC(=O)[C@@H](Cc1ccc(O)cc1)NC(=O)CNC(=O)CNC(=O)CCOCCOCCOCCNC(=O)CN1CCN(CC(=O)O)CCN(CC(=O)O)CC1)[C@H](C)O)C(=O)N[C@H](CC(N)=O)C(=O)N1CCC[C@@H]1C(=O)O [gallium-68 labelled]", "test system": "C57BL/6 mice, male, kidney", "setting": "intravenous, 1.85 MBq, 60 min, with: GP12 blocking", "quantity": "tissue uptake", "result": "33.6 ± 3.25 %ID/g"}
{"Structure (SMILES)": "CSCC[C@H](NC(=O)CNC(=O)[C@H](CCCCN)NC(=O)[C@H](CC(C)C)NC(=O)[C@@H]1CCCN1C(=O)[C@H](CO)NC(=O)[C@H](Cc1c[nH]cn1)NC(=O)[C@H](Cc1c[nH]c2ccccc12)NC(=O)[C@H](CCCNC(=N)N)NC(=O)[C@H](CC(C)C)NC(=O)[C@H](CCCNC(=N)N)NC(=O)[C@H](Cc1c[nH]c2ccccc12)NC(=O)[C@H](CS)NC(=O)CCCCCNC(=O)CN1CCN(CC(=O)O)CCN(CC(=O)O)CCN(CC(=O)O)CC1)C(=O)O [copper-64 labelled]", "assay": "ex vivo biodistribution", "test system": "male C57BL/6J mice, stomach", "setting": "intravenous, 1.85 MBq, 0.5 h, B16-F10 tumour-bearing", "quantity": "tissue uptake", "result": "6.82 %ID/g"}
{"Structure (SMILES)": "Cc1nc2cccc(OCC(C)(C)C(=O)NC(C)C)c2c(N)c1C(=O)[O-].[Na+]", "tested on": "Escherichia coli", "assay": "reverse mutation, preincubation", "test system": "WP2 uvrA", "setting": "0.051 mg/plate, without S9", "quantity": "revertant colonies", "result": "28 ± 5 colonies/plate"}
{"Structure (SMILES)": "O=C(CN1CCN(CC(=O)NCP(=O)([O-])[O-])CCN(CC(=O)NCP(=O)([O-])[O-])CCN(CC(=O)NCP(=O)([O-])[O-])CC1)NCP(=O)([O-])[O-].[Gd+3]", "test system": "Sprague-Dawley rat, bone", "setting": "intravenous (tail vein), dose not given, 2 h", "quantity": "tissue uptake", "result": "0.58 ± 0.162 % injected dose/g"}
{"Structure (SMILES)": "C[C@H](O)[C@@H](NC(=O)[C@H]1CCCN1C(=O)[C@@H](CCCCN)NC(=O)[C@@H](CO)NC(=O)[C@@H](Cc1ccc(O)cc1)NC(=O)[C@@H](CC(N)=O)NC(=O)CCOCCOCCOCCNC(=O)CN1CCN(CC(=O)O)CCN(CC(=O)O)CCN(CC(=O)O)CC1)C(=O)N[C@H](CC(=O)O)C(=O)N[C@H](CCCNC(=N)N)C(=O)N[C@H](CCC(N)=O)C(=O)N[C@H](Cc1ccc(O)cc1)C(=O)N[C@H](Cc1c[nH]cn1)C(=O)N[C@H](Cc1ccccc1)C(N)=O [copper-64 labelled]", "assay": "ex vivo gamma counting", "test system": "C57BL/6J mouse, male, normal, testis", "setting": "intravenous, 1.85 MBq, 20 min", "quantity": "tissue uptake", "result": "0.66 ± 0.05 %ID/g"}
{"Structure (SMILES)": "CS(C)(=O)=Nc1ccc(-c2ccc(-c3nc4cc(O[C@@H]5CO[C@H]6[C@@H]5OC[C@H]6O)[nH]c4cc3F)cc2)cc1", "tested on": "MMP1 (Homo sapiens, UniProt P03956)", "assay": "enzyme activity, inhibitor", "setting": "10 µM", "quantity": "inhibition", "result": "71%"}
{"Structure (SMILES)": "CC[C@H](C)[C@H](NC(=O)[C@H](CCCCN)NC(=O)CNC(=O)[C@H](CC(C)C)NC(=O)[C@H](Cc1ccccc1)NC(=O)[C@H](CCCCN)NC(=O)[C@H](CO)NC(=O)[C@H](Cc1ccccc1)NC(=O)[C@H](Cc1c[nH]c2ccccc12)NC(=O)[C@H](CCC(N)=O)NC(=O)[C@@H](NC(=O)[C@H](Cc1ccccc1)NC(=O)CCCCCNC(=O)CN1CCN(CC(=O)O)CCN(CC(=O)O)CCN(CC(=O)O)CC1)C(C)C)C(=O)N[C@@H](CCC(=O)O)C(=O)N1CCC[C@H]1C(=O)N[C@@H](CC(=O)O)C(=O)N[C@H](C(=O)N[C@@H](CO)C(=O)N[C@@H](CCC(N)=O)C(=O)N[C@H](C(=O)N[C@@H](CCC(N)=O)C(=O)N[C@@H](CC(=O)O)C(=O)N1CCC[C@H]1C(=O)N[C@@H](CC(N)=O)C(=O)N[C@@H](CC(=O)O)C(=O)N[C@@H](CCC(N)=O)C(=O)N[C@@H](Cc1ccc(O)cc1)C(=O)N[C@@H](CCC(=O)O)C(=O)N1CCC[C@H]1C(=O)N[C@@H](Cc1ccccc1)C(=O)O)C(C)C)C(C)C [copper-64 labelled]", "test system": "GZMB-/- mice, CT26 tumour-bearing, stomach", "setting": "2 h, checkpoint inhibitor-treated", "quantity": "tissue uptake", "result": "2.02 ± 0.3 %ID/g"}
{"Structure (SMILES)": "O=C1NC2(CC2)COc2ncc(F)cc2[C@H]2COCCN2c2ccn3ncc1c3n2", "test system": "Sprague-Dawley rat, female, liver", "setting": "oral, 5 mg/kg/day, 4 weeks, end of treatment", "quantity": "organ-to-brain weight ratio", "result": "650 ± 79.5%"}
{"note": "A few entries again:"}
{"Structure (SMILES)": "O=C(CN1CCN(CC(=O)NCP(=O)([O-])[O-])CCN(CC(=O)NCP(=O)([O-])[O-])CCN(CC(=O)NCP(=O)([O-])[O-])CC1)NCP(=O)([O-])[O-].[Gd+3]", "test system": "Sprague-Dawley rat, bone", "setting": "intravenous (tail vein), dose not given, 2 h", "quantity": "tissue uptake", "result": "0.58 ± 0.162 % injected dose/g"}
